Measurements of several laboratories.
Numbered parts are unrelated; each lists some results of a single study. Several values in a cell are separate wells, animals, samples, runs or records.
UniProt O70423, sequence (whole entry, looked up): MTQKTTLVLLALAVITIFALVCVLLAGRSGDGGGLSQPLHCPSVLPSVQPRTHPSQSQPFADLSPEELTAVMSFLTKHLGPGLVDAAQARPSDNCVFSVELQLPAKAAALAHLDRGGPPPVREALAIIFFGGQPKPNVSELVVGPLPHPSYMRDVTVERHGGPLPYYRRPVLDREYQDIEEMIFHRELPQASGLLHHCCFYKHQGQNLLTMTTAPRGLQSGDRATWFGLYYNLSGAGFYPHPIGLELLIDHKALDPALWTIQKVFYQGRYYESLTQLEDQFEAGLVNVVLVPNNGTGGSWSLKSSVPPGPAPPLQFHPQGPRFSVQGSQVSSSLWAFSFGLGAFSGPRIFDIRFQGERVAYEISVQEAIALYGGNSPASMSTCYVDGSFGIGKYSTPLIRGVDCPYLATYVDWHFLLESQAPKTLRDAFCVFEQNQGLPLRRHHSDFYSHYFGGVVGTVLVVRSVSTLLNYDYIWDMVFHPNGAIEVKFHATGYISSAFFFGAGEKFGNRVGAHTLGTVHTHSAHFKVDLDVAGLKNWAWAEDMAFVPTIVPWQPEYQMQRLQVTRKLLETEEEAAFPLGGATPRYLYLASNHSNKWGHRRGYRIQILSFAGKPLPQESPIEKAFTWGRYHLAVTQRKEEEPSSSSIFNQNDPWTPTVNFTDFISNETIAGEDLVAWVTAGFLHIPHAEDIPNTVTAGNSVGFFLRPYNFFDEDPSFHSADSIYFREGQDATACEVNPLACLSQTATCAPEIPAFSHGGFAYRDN
UniProt Q16566, sequence (whole entry, looked up): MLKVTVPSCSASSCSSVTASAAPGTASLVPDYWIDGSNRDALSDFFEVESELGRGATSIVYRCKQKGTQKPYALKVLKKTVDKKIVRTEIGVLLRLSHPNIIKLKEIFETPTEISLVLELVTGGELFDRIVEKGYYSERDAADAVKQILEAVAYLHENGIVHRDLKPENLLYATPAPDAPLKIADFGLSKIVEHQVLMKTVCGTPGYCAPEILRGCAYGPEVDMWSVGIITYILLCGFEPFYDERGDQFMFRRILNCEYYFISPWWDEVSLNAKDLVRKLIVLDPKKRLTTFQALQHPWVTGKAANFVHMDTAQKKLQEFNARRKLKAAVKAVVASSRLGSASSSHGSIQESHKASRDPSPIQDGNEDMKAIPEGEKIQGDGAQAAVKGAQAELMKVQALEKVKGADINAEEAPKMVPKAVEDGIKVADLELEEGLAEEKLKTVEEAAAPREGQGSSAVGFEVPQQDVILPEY
UniProt P11802, sequence (whole entry, looked up): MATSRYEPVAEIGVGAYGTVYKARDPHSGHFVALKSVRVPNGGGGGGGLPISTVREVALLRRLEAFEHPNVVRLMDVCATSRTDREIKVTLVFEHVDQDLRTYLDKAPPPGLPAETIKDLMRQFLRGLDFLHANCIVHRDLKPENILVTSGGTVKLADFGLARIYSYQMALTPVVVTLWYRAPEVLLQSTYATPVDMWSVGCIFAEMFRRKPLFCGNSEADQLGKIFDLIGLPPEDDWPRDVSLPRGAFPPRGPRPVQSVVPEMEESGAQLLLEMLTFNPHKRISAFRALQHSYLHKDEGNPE

Sample 1 — SMILES: O=C(Nc1ccccc1)Nc1cccc(Oc2ccc3nccn3n2)c1; concentration: 1 µM
| target | test | remaining binding |
| --- | --- | --- |
| TXK (Homo sapiens, UniProt P42681) | binding, competition with immobilised ligand | 100% |
| ULK3 (Homo sapiens, UniProt Q6PHR2) | cell-free binding | 100% |
| MAP2K6 (Homo sapiens, UniProt P52564) | binding | 100% |
| WNK4 (Homo sapiens, UniProt Q96J92) | binding | 83% |
| EPHA4 (Homo sapiens, UniProt P54764) | cell-free binding | 100% |
| MAP4K1 (Homo sapiens, UniProt Q92918) | binding, competition with immobilised ligand | 67% |
| KIT (Homo sapiens, UniProt P10721, D816V) | binding | 82% |
| LATS2 (Homo sapiens, UniProt Q9NRM7) | binding | 70% |
| MAPK7 (Homo sapiens, UniProt Q13164) | binding | 100% |
| CAMK4 (Homo sapiens, UniProt Q16566) | binding | 93% |
| SRC (Homo sapiens, UniProt P12931) | binding, competition with immobilised ligand | 100% |
| CAMK1G (Homo sapiens, UniProt Q96NX5) | binding | 100% |
| FLT3 (Homo sapiens, UniProt P36888) | binding, competition with immobilised ligand | 96% |
| Cyclin-dependent kinase 4, with cyclin D1 (CDK4, Homo sapiens, UniProt P11802) | binding | 76% |
| CSF1R (Homo sapiens, UniProt P07333) | binding, competition with immobilised ligand | 0.4% |
| KIT (Homo sapiens, UniProt P10721) | binding, competition with immobilised ligand | 0% |
| TGFBR2 (Homo sapiens, UniProt P37173) | binding, competition with immobilised ligand | 91% |
| Ribosomal protein S6 kinase alpha-5, C-terminal kinase domain (RPS6KA5, Homo sapiens, UniProt O75582) | binding, competition with immobilised ligand | 100% |
| FLT3 (Homo sapiens, UniProt P36888, D835H) | binding | 100% |
| TNK2 (Homo sapiens, UniProt Q07912) | binding, competition with immobilised ligand | 100% |
| NTRK3 (Homo sapiens, UniProt Q16288) | binding, competition with immobilised ligand | 73% |
| FLT3 (Homo sapiens, UniProt P36888, K663Q) | binding | 100% |

Sample 2 — concentration: 1 µM
SMILES: CC[C@@]1(c2cccc(-c3c(F)cncc3OC)c2)C2=C(Nc3n[nH]cc31)[C@H](F)C(C)(C)CC2=O (single isomer, unassigned)
| target | test | scale | remaining binding |
| --- | --- | --- | --- |
| PLK1 (Homo sapiens, UniProt P53350) | kinase binding, KINOMEscan | baseline: DMSO control | 56% |
| DDR1 (Homo sapiens, UniProt Q08345) | binding, competition with immobilised ligand | – | 78% |
| ROCK2 (Homo sapiens, UniProt O75116) | binding, competition with immobilised ligand | – | 57% |
| Tyrosine-protein kinase ABL1, non-phosphorylated (ABL1, Homo sapiens, UniProt P00519, H396P) | kinase binding, KINOMEscan | baseline: DMSO control | 91% |
| OXSR1 (Homo sapiens, UniProt O95747) | binding, competition with immobilised ligand | – | 80% |
| CDK3 (Homo sapiens, UniProt Q00526) | binding, competition with immobilised ligand | – | 2.6% |
| DCLK1 (Homo sapiens, UniProt O15075) | kinase binding, KINOMEscan | baseline: DMSO control | 59% |
| STK4 (Homo sapiens, UniProt Q13043) | kinase binding, KINOMEscan | baseline: DMSO control | 81% |
| FGFR2 (Homo sapiens, UniProt P21802) | binding, competition with immobilised ligand | – | 100% |
| ACVR1B (Homo sapiens, UniProt P36896) | kinase binding, KINOMEscan | baseline: DMSO control | 89% |
| CAMK4 (Homo sapiens, UniProt Q16566) | kinase binding, KINOMEscan | baseline: DMSO control | 100% |
| MAP3K15 (Homo sapiens, UniProt Q6ZN16) | kinase binding, KINOMEscan | baseline: DMSO control | 84% |

Sample 3 — Compound: CS(=O)(=O)c1ccc(OC/C(=C/F)CN)cc1.Cl
MAOA: Amine oxidase [flavin-containing] A (MAOA, Homo sapiens, UniProt P21397)
UniProt P21397, sequence (whole entry, looked up): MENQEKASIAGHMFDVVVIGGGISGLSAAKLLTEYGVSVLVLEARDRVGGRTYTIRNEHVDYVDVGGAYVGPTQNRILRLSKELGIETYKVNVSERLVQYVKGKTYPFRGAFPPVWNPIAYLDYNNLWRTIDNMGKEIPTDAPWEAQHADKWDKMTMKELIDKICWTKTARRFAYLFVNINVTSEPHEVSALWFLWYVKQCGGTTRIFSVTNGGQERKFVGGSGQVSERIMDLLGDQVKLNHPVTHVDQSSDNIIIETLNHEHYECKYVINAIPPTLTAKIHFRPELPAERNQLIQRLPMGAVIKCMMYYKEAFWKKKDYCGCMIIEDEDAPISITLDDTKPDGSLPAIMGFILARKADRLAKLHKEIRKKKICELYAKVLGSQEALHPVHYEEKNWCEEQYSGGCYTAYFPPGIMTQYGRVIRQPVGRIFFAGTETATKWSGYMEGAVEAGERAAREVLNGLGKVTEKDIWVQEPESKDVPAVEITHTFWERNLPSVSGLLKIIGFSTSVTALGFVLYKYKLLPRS
| target | test | system | setting | inhibition |
| --- | --- | --- | --- | --- |
| Amine oxidase [copper-containing] 3 (Mus musculus, UniProt O70423) | – | mouse adipose tissue | 1.694e-05 µM | -3.68% |
| MAOA | enzyme activity, inhibitor | – | 200 pM | -3.05% and -8.33% |
| MAOA | enzyme activity, inhibitor | – | 500 pM | 2.13% and -4.66% and -5.53% and -4.93% and 4.14% |
| Amine oxidase [copper-containing] 3 (Mus musculus, UniProt O70423) | – | mouse adipose tissue | 3 µM | 99.6% |
| MAOB (Homo sapiens, UniProt P27338) | enzyme activity, inhibitor | – | 30 µM | 14.2% and 11% |
| MAOA | enzyme activity, inhibitor | – | 0.1235 µM | -0.859% and -0.0778% and 6.07% and 4.42% and -0.432% |
| Amine oxidase [copper-containing] 3 (Mus musculus, UniProt O70423) | – | mouse adipose tissue | 1 µM | 99% |
| Amine oxidase [copper-containing] 3 (Rattus norvegicus, UniProt O08590) | – | rat adipose tissue | 0.037 µM | 94.5% |

Sample 4
SMILES: COc1ccc2c(c1)OC(O)(C(=O)O)C(=O)N2Cc1ccccc1 (centres unmarked)
| organism | test | system | setting | scale | inhibition |
| --- | --- | --- | --- | --- | --- |
| Avena fatua | fresh weight | – | 150 g ai/ha, pre-emergence treatment | – | 100% |
| Glycine max | fresh weight | – | soil surface spray, 150 g ai/ha, 21 days, pre-emergence crop safety | – | 8.5% and 9% and 10.5% |
| Arabidopsis thaliana | root length | Col-0, seedlings | 50 µg/mL | baseline: water control | 46.3% |
| Arabidopsis thaliana | root length | Col-0, seedlings | 25 µg/mL | baseline: water control | 20.5% |
| Arabidopsis thaliana | hypocotyl length | Col-0 | 12.5 µg/mL, 7 days, seed germination, dark | – | 12% |
| Arabidopsis thaliana | root length | Col-0, seedlings | 50 µg/mL | – | 46.3% |
| Arabidopsis thaliana | hypocotyl length | Col-0, seedlings | 100 µg/mL | – | 51% |
| Amaranthus retroflexus | fresh weight | – | 150 g ai/ha, post-emergence treatment | – | 59.4% and 53.8% and 55.8% |
| Arabidopsis thaliana | hypocotyl length | Col-0 | 100 µg/mL, 7 days, seed germination, dark | – | 51% |
| Arabidopsis thaliana | root length | Col-0, seedlings | 25 µg/mL | – | 20.5% |
| Arabidopsis thaliana | hypocotyl length | Col-0 | 25.0 µg/mL, 7 days, seed germination, dark | – | 22.7% |
| Arabidopsis thaliana | hypocotyl length | Col-0, seedlings | 12.5 µg/mL | – | 12% |
| Arabidopsis thaliana | root length | Col-0, seedlings | 6.25 µg/mL | baseline: water control | 9.88% |

Sample 5 — effect on: thermal unfolding; technique: differential scanning fluorimetry; concentration: 5.5 µM; reading: higher = more unfolded
SMILES: C[C@@H]1CN(c2ccc(-c3cc(C(=O)NCCOCCOCCOCCOCCNC(=O)/C=C/c4[nH]cc(C(=O)N[C@@H](CC(N)=O)c5ccc(F)c(Cl)c5)c4-c4ccc(Cl)cc4F)ccc3F)cc2NC(=O)c2c[nH]c(=O)cc2C(F)(F)F)C[C@H](C)N1C
DCAF1: DDB1- and CUL4-associated factor 1 (DCAF1, Homo sapiens, UniProt Q9Y4B6)
UniProt Q9Y4B6, sequence (whole entry, looked up): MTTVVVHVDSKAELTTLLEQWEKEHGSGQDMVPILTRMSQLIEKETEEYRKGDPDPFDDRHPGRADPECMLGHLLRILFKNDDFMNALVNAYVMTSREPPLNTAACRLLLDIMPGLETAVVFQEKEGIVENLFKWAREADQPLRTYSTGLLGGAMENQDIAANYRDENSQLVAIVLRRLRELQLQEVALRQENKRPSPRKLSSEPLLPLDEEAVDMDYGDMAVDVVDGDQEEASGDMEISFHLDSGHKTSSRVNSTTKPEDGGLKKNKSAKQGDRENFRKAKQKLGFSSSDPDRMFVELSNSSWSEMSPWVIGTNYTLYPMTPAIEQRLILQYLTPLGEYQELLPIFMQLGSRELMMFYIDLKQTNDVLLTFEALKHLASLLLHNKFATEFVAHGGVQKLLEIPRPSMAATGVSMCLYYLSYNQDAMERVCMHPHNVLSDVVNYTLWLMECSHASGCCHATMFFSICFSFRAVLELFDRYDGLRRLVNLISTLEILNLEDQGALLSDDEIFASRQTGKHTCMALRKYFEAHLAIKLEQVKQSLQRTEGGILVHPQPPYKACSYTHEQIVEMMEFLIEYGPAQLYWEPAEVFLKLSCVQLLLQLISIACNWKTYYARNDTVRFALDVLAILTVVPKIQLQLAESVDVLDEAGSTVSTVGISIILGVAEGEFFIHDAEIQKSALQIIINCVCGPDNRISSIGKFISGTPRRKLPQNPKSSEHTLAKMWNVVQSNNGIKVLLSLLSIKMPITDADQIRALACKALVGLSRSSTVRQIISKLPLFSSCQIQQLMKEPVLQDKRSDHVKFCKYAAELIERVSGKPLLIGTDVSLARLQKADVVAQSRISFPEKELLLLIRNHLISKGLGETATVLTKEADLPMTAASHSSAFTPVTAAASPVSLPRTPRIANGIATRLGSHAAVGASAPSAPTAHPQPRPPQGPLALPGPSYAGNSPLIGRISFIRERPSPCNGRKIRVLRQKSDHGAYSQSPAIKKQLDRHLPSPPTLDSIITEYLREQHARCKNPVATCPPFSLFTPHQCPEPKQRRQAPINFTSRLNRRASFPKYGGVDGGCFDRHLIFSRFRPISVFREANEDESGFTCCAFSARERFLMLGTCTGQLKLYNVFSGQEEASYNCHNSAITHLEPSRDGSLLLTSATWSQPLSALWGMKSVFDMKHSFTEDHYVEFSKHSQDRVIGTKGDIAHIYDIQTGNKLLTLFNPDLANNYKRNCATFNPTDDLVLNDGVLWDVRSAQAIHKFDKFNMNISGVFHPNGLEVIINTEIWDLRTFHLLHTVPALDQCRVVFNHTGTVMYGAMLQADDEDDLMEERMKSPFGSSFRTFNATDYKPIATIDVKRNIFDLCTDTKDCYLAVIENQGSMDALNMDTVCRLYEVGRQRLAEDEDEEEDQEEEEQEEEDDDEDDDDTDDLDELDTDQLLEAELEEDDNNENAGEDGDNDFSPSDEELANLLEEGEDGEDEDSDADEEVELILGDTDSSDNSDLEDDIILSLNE
WDR5: WD repeat-containing protein 5 (WDR5, Homo sapiens, UniProt P61964)
| target | setting | SYPRO Orange fluorescence [a.u.] |
| --- | --- | --- |
| DCAF1 | 53.01 °C | 18000 |
| WDR5 | 67.61 °C | 14200 |
| DCAF1 | 36.2 °C | 10500 |
| WDR5 | 53.81 °C | 16700 |
| WDR5 | 89.41 °C | 51800 |
| WDR5 | 65.61 °C | 14100 |
| DCAF1 | 28.4 °C | 9100 |
| DCAF1 | 35.8 °C | 10400 |

Mixed results
PKMYT1: Membrane-associated tyrosine- and threonine-specific cdc2-inhibitory kinase (PKMYT1, Homo sapiens, UniProt Q99640)
UniProt Q99640, sequence (whole entry, looked up): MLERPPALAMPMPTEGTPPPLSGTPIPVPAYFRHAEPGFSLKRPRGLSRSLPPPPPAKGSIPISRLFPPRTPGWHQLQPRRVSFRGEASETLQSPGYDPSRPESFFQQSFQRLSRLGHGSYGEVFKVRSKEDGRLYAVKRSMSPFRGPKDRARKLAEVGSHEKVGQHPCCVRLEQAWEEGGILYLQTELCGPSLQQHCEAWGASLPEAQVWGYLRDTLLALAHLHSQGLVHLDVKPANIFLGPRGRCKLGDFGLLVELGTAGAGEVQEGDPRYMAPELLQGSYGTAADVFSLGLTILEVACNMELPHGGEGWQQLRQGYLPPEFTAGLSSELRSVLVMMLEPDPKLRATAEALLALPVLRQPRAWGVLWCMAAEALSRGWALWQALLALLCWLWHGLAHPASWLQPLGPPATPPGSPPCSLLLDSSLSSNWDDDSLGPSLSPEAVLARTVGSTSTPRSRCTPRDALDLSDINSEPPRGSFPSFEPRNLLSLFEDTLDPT
| Compound | tested on | test | system | setting | quantity | value |
| --- | --- | --- | --- | --- | --- | --- |
| Cc1ccc(O)c(C)c1-c1cnc2[nH]c(-c3cnc(N4CC5(CC(CN6CCN(c7ccc(NC8CCC(=O)NC8=O)cc7F)CC6)C5)C4)nc3)cc2c1C#N (centres unmarked) | – | – | CD-1 mouse | intravenous, dose not given, 6 h | plasma concentration | not detected |
| CCN1/C(=C/C=C2\CCCC(/C=C/C3=[N+](CC)c4ccccc4C3(C)C)=C2NCCCCCCCCN2CCC(Nc3nc4ccccc4n3Cc3ccc(F)cc3)CC2)C(C)(C)c2ccccc21 | – | dynamic light scattering | PBS | pH 6.5 | particle diameter | 460 nm |
| Cc1ccc(O)c(C)c1-c1cnc2[nH]c(-c3cnc(N4CCC5(CC4)CC(N4CCN(c6ccc(NC7CCC(=O)NC7=O)cc6F)CC4)CO5)nc3)cc2c1C#N (centres unmarked) | PKMYT1 | protein level, degrader | HCC1599 | – | Dmax | 79% |
| Cc1ccc(O)c(C)c1-c1cnc2[nH]c(-c3cnc(N4CCC(CCN5CCN(c6ccc(N7CCC(=O)NC7=O)cc6F)CC5)CC4)nc3)cc2c1C#N | PKMYT1 | binding, HTRF | – | 0.15 nM | inhibition | -1.08% and -2.61% |
| Cc1ccc(O)c(C)c1-c1cnc2[nH]c(-c3cnc(N4CCC(CN5CCN(c6ccc(NC7CCC(=O)NC7=O)cc6F)CC5)CC4)nc3)cc2c1C#N (centres unmarked) | – | – | female CD-1 mouse, plasma | oral, 10 mg/kg | half-life | 3.3 h |

A few entries again (sample 3):
| target | test | system | setting | inhibition |
| --- | --- | --- | --- | --- |
| Amine oxidase [copper-containing] 3 (Mus musculus, UniProt O70423) | – | mouse adipose tissue | 1.694e-05 µM | -3.68% |
| MAOA | enzyme activity, inhibitor | – | 200 pM | -3.05% and -8.33% |
| MAOA | enzyme activity, inhibitor | – | 500 pM | 2.13% and -4.66% and -5.53% and -4.93% and 4.14% |
| Amine oxidase [copper-containing] 3 (Mus musculus, UniProt O70423) | – | mouse adipose tissue | 3 µM | 99.6% |
| MAOB (Homo sapiens, UniProt P27338) | enzyme activity, inhibitor | – | 30 µM | 14.2% and 11% |
| MAOA | enzyme activity, inhibitor | – | 0.1235 µM | -0.859% and -0.0778% and 6.07% and 4.42% and -0.432% |
| Amine oxidase [copper-containing] 3 (Mus musculus, UniProt O70423) | – | mouse adipose tissue | 1 µM | 99% |
| Amine oxidase [copper-containing] 3 (Rattus norvegicus, UniProt O08590) | – | rat adipose tissue | 0.037 µM | 94.5% |
